# Measurements pooled from the literature.
# Compare with care: the assays were run in different laboratories. ± gives the spread as reported.
Structure (SMILES),target,assay,system,setting,scale,measurement,value
O=C([O-])CN1CCN(CC(=O)[O-])CCN(C(CCC(=O)NC(Cc2c[nH]c3ccc(O)cc23)C(=O)NCCc2c[nH]c3ccc(O)cc23)C(=O)O)CCN(CC(=O)[O-])CC1.[Gd+3] (stereo not shown),myeloperoxidase,MR imaging,mice CFA inflammation,60 min,reference: MPO-Gd,activation ratio,~2 fold
COC(=O)c1cnc(-c2cnccn2)cc1C(=O)OC.COC(=O)c1cnc(-c2cnccn2)cc1C(=O)OC.O.O.O.O=S(=O)([O-])C(F)(F)F.O=S(=O)([O-])C(F)(F)F.[Cu+2],calf thymus DNA,ethidium bromide displacement,,,,binding constant,42.2 M⁻¹
Cc1cn(-c2ccc(-c3cc(C)c(N[C@@H](C)c4ccc(F)cc4)nn3)nc2O[11CH3])cn1,presenilin-1 gamma-secretase,PET-CT,"female 5XFAD mice, 10 weeks, whole brain",intravenous,reference: 5XFAD over wild type,brain uptake ratio,2.3 fold
Cc1c(C)c(C)[c-](C)c1C.[C-]#[O+].[C-]#[O+].[C-]#[O+].[Cl-].[Cl-].[Cl-].[Ir+3].[Re+].c1cnc(-c2ncccn2)nc1,calf thymus DNA,ethidium bromide displacement,,,,Stern-Volmer constant,18000 M⁻¹
CC[C@H](C)[C@@H]1NC(=O)[C@H](Cc2ccc(O)cc2)NC(=O)[C@@H](N)CSSC[C@@H](C(=O)N2CCC[C@H]2C(=O)N2CCC[C@H]2C(=O)NCC(N)=O)NC(=O)[C@H](CC(N)=O)NC(=O)[C@H](CCC(N)=O)NC1=O,"vasopressin V1a receptor, Callithrix jacchus","membrane hyperpolarization, FLIPR membrane potential",CHO transfected with receptor,,,IC50,6.83e-05 µM
CC1OC(OC2C(c3c(O)cc(O)c4c(=O)cc(-c5ccc(O)cc5)oc34)OC(CO)C(O)C2O)C(O)C(O)C1O (stereo not shown),arginine-methylglyoxal glycation,"AGE formation, inhibitor",,,,IC50,40.2 ± 0.45 µM
Cc1cccc(C)c1NC(=O)[C@@H]1CCCN1Cc1ccccc1,Nav1.4 sodium channel,vaseline gap voltage clamp,Pelophylax lessonae skeletal muscle,30 µM,,shift of steady-state inactivation,5.7 ± 0.8 mV
CCN(CC)CCCC(C)Nc1cc[n+]([Ru-]([Cl])[Cl])c2cc(Cl)ccc12.Cc1ccc(C(C)C)cc1 (stereo not shown),calf thymus DNA,thermal denaturation,,"0.5 equivalents per DNA, 1 h, pH 7.39, 25 °C, 25 mM NaClO4",,delta Tm,5.5 °C
CC[C@H](C)[C@H](NC(=O)[C@@H]1CCCN1C(=O)[C@H](CCCCN)NC(=O)[C@H](CO)NC(=O)[C@H](CO)NC(=O)[C@H](Cc1ccc(O)cc1)NC(=O)[C@H](CO)NC(=O)[C@H](C)NC(=O)[C@H](CO)NC(=O)[C@@H](N)Cc1ccccc1)C(=O)N[C@@H](CCC(N)=O)C(=O)N[C@H](C(=O)N[C@@H](CCC(N)=O)C(=O)N[C@H](C(=O)N[C@@H](CO)C(=O)N[C@@H](CC(N)=O)C(=O)NCC(=O)N[C@@H](CCSC)C(=O)N[C@@H](CC(=O)O)C(=O)N[C@@H](CC(N)=O)C(=O)N[C@@H](C)C(=O)N[C@@H](CO)C(=O)N[C@@H](C)C(=O)N1CCC[C@H]1C(=O)N[C@H](C(=O)O)C(C)C)C(C)C)[C@@H](C)O,"PCY1 peptide cyclase, Saponaria vaccaria","substrate, LC-MS",,"200 µM, pH 8.5, 30 °C, with: PCY1 3.6 µM",,time to complete macrocyclization,> 3 h
Nc1nc2ccc(OC(F)(F)Cl)cc2s1,"MeAIB/glutamine transporter, rat",MeAIB uptake,"hippocampal neurons, rat","20 µM, with: [14C]MeAIB 23.4 µM",,inhibition,> 90%
Cc1cc(N)c2cc(NC(=O)CCC(=O)Nc3ccc4nc(C)cc(N)c4c3)ccc2n1,unfractionated heparin,"heparin neutralization, factor Xa chromogenic",,"with: heparin 0.2 IU/mL, antithrombin III",,IC50,4.6 ± 0.07 µM
CC(C)=CCC/C(C)=C/Cc1c(CCC(=O)c2ccc(O)cc2O)ccc(O)c1O,mitochondrial complex II-III (bovine heart),"succinate-cytochrome c reductase, inhibitor",,,,IC50,10.8 ± 0.65 µM
OB(O)c1sccc1/C=N/OCc1ccccc1,human pancreatic chymotrypsin,"enzyme activity, inhibitor",,100 µM,,inhibition,inactive

# Excerpt of the above:
Structure (SMILES),target,assay,system,setting,scale,measurement,value
CC[C@H](C)[C@@H]1NC(=O)[C@H](Cc2ccc(O)cc2)NC(=O)[C@@H](N)CSSC[C@@H](C(=O)N2CCC[C@H]2C(=O)N2CCC[C@H]2C(=O)NCC(N)=O)NC(=O)[C@H](CC(N)=O)NC(=O)[C@H](CCC(N)=O)NC1=O,"vasopressin V1a receptor, Callithrix jacchus","membrane hyperpolarization, FLIPR membrane potential",CHO transfected with receptor,,,IC50,6.83e-05 µM
